Published values collected from several papers.
Lines come from different studies, so protocols differ. “And” joins repeats or separate records; there may be more than shown. ± gives the spread as reported.

Compound	assay	system	setting	tissue uptake
O=C(NCC1OC2CCC=CCCC2O1)c1ccc(COCCOCCOCC[18F])cc1 (stereo not shown)		healthy female BALB/c nude mice, muscle	intravenous, 7.4 MBq per mouse, 15 min	2.5 ± 0.2 %ID/g
CCCC[C@H](NC(=O)COCCOCCNC(=O)CN1CCN(CC(=O)O)CCN(CC(=O)O)CC1)C(=O)N[C@H]1CC(=O)NCCCC[C@@H](C(N)=O)NC(=O)[C@H](Cc2c[nH]c3ccccc23)NC(=O)[C@H](CCCNC(=N)N)NC(=O)[C@@H](Cc2ccccc2)NC(=O)[C@H](Cc2c[nH]cn2)NC1=O [fluorine-18 labelled]		C57 mice, B16/F10 melanoma, liver	intravenous, 1 h, added: NDP-MSH 10 µg	1.14 ± 0.36 %ID/g
COc1ccc(Nc2nc(Nc3ccc(OCCOCC[18F])cc3)ncc2Br)cc1		ICR mice, S180 tumour-bearing, muscle	intravenous, 370 kBq, 15 min	2.25 ± 0.2 %ID/g
N#C[C@@H]1CCCN1C(=O)CNC(=O)c1ccnc2ccc(OCCCN3CCN(C(=O)CCc4ccc5c(c4)CN4CCN(Cc6cc(CCC(=O)O)ccc6O)CC(=O)[O][Al-]([18F])([O]C(=O)C4)[O]5)CC3)cc12 (stereo partly shown)		BALB/c nude mice, U-87 MG xenograft, lung	2 h	1.28 ± 0.33 %ID/g
CC(C)C[C@H](NC(=O)[C@@H](CCCCNC(=O)[C@@H](Cc1ccccc1)NC(=O)CCCCCCCNC(=O)CN1CCN(CC(=O)O)CCN(CC(=O)O)CCN(CC(=O)O)CC1)NC(=O)[C@H](Cc1ccc(O)cc1)NC(=O)[C@H](CO)NC(=O)[C@H](Cc1c[nH]c2ccccc12)NC(=O)[C@H](Cc1c[nH]cn1)NC(=O)[C@@H]1CCC(=O)N1)C(=O)N[C@@H](CCCNC(=N)N)C(=O)N1CCC[C@H]1C(=O)NCC(N)=O [indium-111 labelled]	biodistribution	male athymic nude mice, DU-145 prostate cancer xenograft, muscle	intravenous, 0.037 MBq, 2 h post-injection	0.11 ± 0.03 %ID/g
CCCC[C@H](NC(=O)CCCCCCCNC(=O)CN1CCN(CC(=O)O)CCN(CC(=O)O)CC1)C(=O)N[C@H]1CC(=O)NCCCC[C@@H](C(N)=O)NC(=O)[C@H](Cc2c[nH]c3ccccc23)NC(=O)[C@H](CCCNC(=N)N)NC(=O)[C@@H](Cc2ccccc2)NC(=O)[C@H](Cc2c[nH]cn2)NC1=O [fluorine-18 labelled]		C57 mice B16-F10 melanoma, bone	intravenous, 0.37 MBq, 0.5 h	3.7 ± 0.92 %ID/g
O=C([O-])CN1CCN(CC(=O)[O-])CCN(CC(=O)NC[C@H]2CC[C@H](C(=O)N[C@H](Cc3cnc4ccccc4c3)C(=O)NCCCC[C@H](NC(=O)N[C@@H](CCC(=O)O)C(=O)O)C(=O)O)CC2)CCN(CC(=O)[O-])CC1.[64Cu+2]	ex vivo gamma counting	22Rv1 tumour-bearing mice, lung	intravenous, 0.74 MBq, 24 h post-injection	15.2 %ID/g
Cc1cc(C)n(CCN(CCN)CCCCCCNC(=O)[C@@H](N)Cc2c[nH]cn2)n1.[99Tc+].[C-]#[O+].[C-]#[O+].[C-]#[O+]		BALB/c nude mice, A549 xenograft, liver	intravenous, 24 h	8.6 ± 1.39 %IA/g
O=C(NCC1OC2CCC=CCCC2O1)c1ccc([18F])nc1 (stereo not shown)		healthy female BALB/c nude mice, heart	intravenous, 7.4 MBq per mouse, 2 min	4.7 ± 0.7 %ID/g
COc1ccc2c(c1)C(C)(C)C(/C=C/C1=C(Oc3ccc(C(=O)NCCCCOc4cc(CN(Cc5ccccn5)Cc5ccccn5)cc(CN(Cc5ccccn5)Cc5ccccn5)c4)cc3)C(=C/C=C3/N(CCCCS(=O)(=O)[O-])c4ccc(OC)cc4C3(C)C)CCC1)=[N+]2CCCCS(=O)(=O)[O-].O=[N+]([O-])[O-].O=[N+]([O-])[O-].[99Tc+].[C-]#[O+].[C-]#[O+].[C-]#[O+].[Zn+2]		BALB/c mice, healthy, adipose tissue	12 h post-injection	0.18 %ID/g and 0.21 %ID/g and 0.2 %ID/g

A few entries again:
Compound	assay	system	setting	tissue uptake
COc1ccc(Nc2nc(Nc3ccc(OCCOCC[18F])cc3)ncc2Br)cc1		ICR mice, S180 tumour-bearing, muscle	intravenous, 370 kBq, 15 min	2.25 ± 0.2 %ID/g
